Assay results of several laboratories.
Compare with care: the assays were run in different laboratories.

CC(C)C[C@H](NC(=O)CN)C(=O)N[C@@H](CC(=O)O)C(=O)N[C@@H](CC(N)=O)C(=O)N[C@@H](Cc1ccc(O)cc1)C(=O)N[C@@H](CCCNC(=N)N)C(=O)NCC(=O)N[C@@H](Cc1ccc(O)cc1)C(=O)N[C@@H](CO)C(=O)N[C@@H](CC(C)C)C(=O)NCC(=O)N[C@@H](CC(N)=O)C(N)=O has an EC50 of greater than 10 µM (2D12.1 T cell hybridoma; T cell activation, agonist, measured: IL-2; 24 h, NOD mouse spleen cells).
C(=C/c1ccccc1)/c1ccccc1 gave an EC50 of greater than 500 µM (CCRF-CEM; apoptosis, Hoechst staining; 24 h).
The EC50 of CC(=O)O[C@H]1OC[C@@H]2C=C([C@@]3(C)CCCC(C)(C)C3)CC[C@H]12 is reported as 1 to 4 µM (human T-lymphocyte; cell growth or viability, MTT; 48 h).
Cc1ccc2c(n1)c1nc(C)ccc1c1nc3cc4ccccc4cc3nc21.[Ru+2].c1ccc(-c2cccc(-c3ccccn3)n2)nc1.c1ccncc1 has an EC50 of greater than 25 µM (M2 murine macrophages; cell viability, MTT; 1 h, dark).
For Cc1cc2cc(O)c(O)cc2c(O)c1-c1c(C)cc2cc(O)c(O)cc2c1O, the EC50 was 10.1 µM (H460; ATP-lite viability; 72 h).
The EC50 of CC(C)C[C@H](NC(=O)[C@H](CO)NC(=O)[C@H](Cc1ccc(O)cc1)NC(=O)CNC(=O)[C@H](CCCNC(=N)N)NC(=O)[C@H](Cc1ccc(O)cc1)NC(=O)[C@H](CC(N)=O)NC(=O)[C@@H](N)CC(=O)O)C(=O)NCC(=O)N[C@@H](CC(N)=O)C(N)=O is reported as greater than 10 µM (2D12.1 T cell hybridoma; T cell activation, agonist, measured: IL-2; 24 h, NOD mouse spleen cells).
With c1ccc(CN2CCOCCOCCN(CCCCCCCCCCCCCCN3CCOCCOCCN(CCCCCCCCCCCCCCN4CCOCCOCCN(Cc5ccccc5)CCOCCOCC4)CCOCCOCC3)CCOCCOCC2)cc1 the EC50 was 2.1 µM (human Hepatocyte; cell growth or viability; 72 h).
For O=C(N[C@@H](Cc1coc2ccccc12)B(O)O)[C@@H]1C[C@H]2CC[C@@H]1O2, the EC50 was 1.98 µM (MM1.S; measured: ubiquitinated proteins; 6 h; increase).
FC(F)(F)c1ccnc(-c2cc(C(F)(F)F)ccn2)c1.FC(F)(F)c1ccnc(-c2cc(C(F)(F)F)ccn2)c1.[Cl-].[Cl-].[Ru+2].c1csc(-c2ccc(-c3ccc(-c4ccc(-c5nc6c7cccnc7c7ncccc7c6[nH]5)s4)s3)s2)c1 gave an EC50 of less than 10 µM (SK-MEL-28; cell viability, resazurin; hypoxia 1% O2, with: red light).

A few entries again:
C(=C/c1ccccc1)/c1ccccc1 gave an EC50 of greater than 500 µM (CCRF-CEM; apoptosis, Hoechst staining; 24 h).
